# Experimental data from different studies.
# Lines come from different studies, so protocols differ.
# NIM1K: Serine/threonine-protein kinase NIM1 (NIM1K, Homo sapiens, UniProt Q8IY84)
# TDP1: Tyrosyl-DNA phosphodiesterase 1 (TDP1, Homo sapiens, UniProt Q9NUW8)
# Chain of UniProt Q9NUW8 (whole entry, looked up): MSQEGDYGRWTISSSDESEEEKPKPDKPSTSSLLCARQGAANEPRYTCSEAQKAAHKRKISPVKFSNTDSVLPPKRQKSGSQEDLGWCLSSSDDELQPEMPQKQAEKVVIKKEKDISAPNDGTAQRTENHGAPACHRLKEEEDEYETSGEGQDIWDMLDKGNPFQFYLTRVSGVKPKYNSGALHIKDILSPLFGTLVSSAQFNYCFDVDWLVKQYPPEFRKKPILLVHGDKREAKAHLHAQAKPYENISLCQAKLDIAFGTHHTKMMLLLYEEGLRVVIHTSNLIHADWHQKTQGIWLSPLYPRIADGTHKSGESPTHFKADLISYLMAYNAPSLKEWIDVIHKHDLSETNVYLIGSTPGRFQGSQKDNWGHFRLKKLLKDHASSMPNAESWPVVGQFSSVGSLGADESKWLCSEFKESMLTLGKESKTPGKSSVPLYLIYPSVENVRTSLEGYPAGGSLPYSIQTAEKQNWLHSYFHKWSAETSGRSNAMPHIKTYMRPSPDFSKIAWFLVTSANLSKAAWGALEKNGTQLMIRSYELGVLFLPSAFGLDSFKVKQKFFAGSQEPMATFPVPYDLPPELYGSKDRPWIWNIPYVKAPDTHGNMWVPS
Structure (SMILES),target,test,conditions,how to read,measurement,result
C=CC(=O)N1CCc2ccc(-n3c(=O)ccc4cnc5ccc(-c6cnn(C)c6)cc5c43)cc21,NIM1K,KINOMEscan,1 µM,baseline: DMSO control,remaining binding,100%
CN1CC[C@@H](COc2cnc(C#N)cc2-c2ccn3nc(NC(=O)C4CC4)cc3c2)C1,NIM1K,"enzyme activity, inhibitor",1 µM,,inhibition,8%
Cc1cnc2nc1Nc1cccc(c1)COC/C=C/COCc1cc(ccc1OCCN1CCOCC1)N2,NIM1K,"binding, competition with immobilised ligand",0.1 µM,,remaining binding,97%
COc1c(Cl)cccc1Nc1c(-c2ccncc2C#C[C@@]2(C)CCCN2C(=O)/C=C/CN(C)C)[nH]c2c1C(=O)NCC2,NIM1K,"binding, competition with immobilised ligand",3 µM,,remaining binding,48%
COC(=O)c1ccc(C=NOCc2ccc(-c3nc4cc(-c5ccccc5)ccn4c3Nc3ccc(C(=O)O)cc3)cc2)nc1,TDP1,"enzyme activity, inhibitor","100 µM, unpurified compound",,inhibition,86%
CNC1C[S+]2CC[S+]3CC[S+](C1)[Ru-4]321([N]=C=S)[n]2c3ccc(OC)cc3c3c4c(c5cc(F)c[n+]1c5c32)C(=O)NC4=O (stereo not drawn),NIM1K,KinomeScan,0.1 µM,baseline: untreated,remaining binding,90%
COc1cc(Nc2nccc(-c3cnn4nc(OC)ccc34)n2)cc(C(F)(F)F)c1,NIM1K,"binding, competition with immobilised ligand",1 µM,,remaining binding,100%
CNC(=O)C1CCN(c2cc(C)c(F)cc2NC(=O)c2ccc(-c3cc(O)ccc3C)c(C)c2)CC1,NIM1K,"binding, competition with immobilised ligand",1 µM,,remaining binding,89%
COc1cccc(F)c1C=NOCc1ccc2nc(-c3ccccc3)c(Nc3ccc(C(=O)O)cc3)n2c1 (mixture of isomers),TDP1,"enzyme activity, inhibitor","100 µM, unpurified compound",,inhibition,13%
CCn1cc(C(=O)O)c(=O)c2c(N)c(F)c(NC3CCCCC3)cc21,NIM1K,kinase activity,"0.1 µM, with: ATP at Km",,inhibition,-13.9%
O=C(Cc1ccc(OCc2ccccc2)cc1)NC1(C(=O)O)CCN(C(=O)c2ccc(-c3cccc(Cl)c3)cc2)CC1,NIM1K,"enzyme activity, inhibitor",10 µM,,activity vs control,140%
Cc1ccc(-c2c(/C=C(\C#N)C(=O)NC(C)C)n(CCCO)c3ncnc(N)c23)cc1,NIM1K,"cell-free assay, competition with immobilised ligand",1 µM,,remaining binding,100%
CCN1CCN(Cc2ccc(C(=O)Nc3ccc(C)c(NCc4cnc5[nH]ccc5c4OC)c3)cc2C(F)(F)F)CC1,NIM1K,"binding, competition with immobilised ligand",1 µM,,remaining binding,100%
CNC(=O)C[C@H](Cc1ccc(C#N)cc1)NC(=O)c1cc(-c2ccc(CN[C@H](C)c3ccc(C)cc3)o2)ccc1Cl,NIM1K,"enzyme activity, inhibitor",1 µM,,activity vs control,97%
Nc1ncc2c(n1)-c1c([nH]c3ccc(C4=CCOCC4)cc13)CCC2,NIM1K,"binding, competition with immobilised ligand",1 µM,,remaining binding,91%
Nc1ncc(-c2cc(-c3cnn(CC(F)(F)F)c3)ncc2F)nc1C(=O)NC1CNCC(F)C1 (stereo not drawn),NIM1K,enzyme activity,1 µM,baseline: DMSO control,remaining activity,102%
COc1cc(Nc2nc(C)cc(-c3cnn4nc(OC)ccc34)n2)cc(C(F)(F)F)c1,NIM1K,KINOMEscan binding,1000 nM,baseline: control,remaining binding,94%
C=CC(=O)N1CCCC(n2c(=O)c3ncccc3n(Cc3ccc(Oc4ccccc4)cc3)c2=O)C1 (stereo not drawn),NIM1K,"cell-free assay, competition with immobilised ligand",1 µM,,remaining binding,73%
CN1CCN(Cc2ccc(-c3ccc(CO[C@H]4CCC[C@@H]4NC(=O)c4cc(-c5cnn(C)c5)cnc4N)cc3)cc2)CC1,NIM1K,"enzyme activity, inhibitor",0.1 µM,,inhibition,0%
C=CC(=O)N1Cc2nc(-c3cc(-c4cc(Cl)cnc4Cl)c(F)cc3F)n(-c3ccncn3)c2C1,NIM1K,"cell-free assay, inhibitor",1 µM,,inhibition,2.1%
CC(C)=CC1OC(C)(C)C2C=C3C(=O)C(Cl)=CC(O)C3C3C(O)C4OC4C(=O)C132 (stereo not drawn),NIM1K,"cell-free assay, competition with immobilised ligand",10 µM,,remaining binding,66%

# Repeated from above:
Structure (SMILES),target,test,conditions,how to read,measurement,result
C=CC(=O)N1CCc2ccc(-n3c(=O)ccc4cnc5ccc(-c6cnn(C)c6)cc5c43)cc21,NIM1K,KINOMEscan,1 µM,baseline: DMSO control,remaining binding,100%
CN1CC[C@@H](COc2cnc(C#N)cc2-c2ccn3nc(NC(=O)C4CC4)cc3c2)C1,NIM1K,"enzyme activity, inhibitor",1 µM,,inhibition,8%
Cc1cnc2nc1Nc1cccc(c1)COC/C=C/COCc1cc(ccc1OCCN1CCOCC1)N2,NIM1K,"binding, competition with immobilised ligand",0.1 µM,,remaining binding,97%
